Experimental data from different studies.
Organism: Bacillus subtilis

| SMILES | test | test system | conditions | MIC |
| --- | --- | --- | --- | --- |
| CN[C@H](CC(C)C)C(=O)N[C@H]1C(=O)N[C@@H](CC(N)=O)C(=O)N[C@H]2C(=O)N[C@H]3C(=O)N[C@H](C(=O)N[C@H](C(=O)O)c4cc(O)cc(O)c4-c4cc3ccc4O)[C@H](O)c3ccc(c(Cl)c3)Oc3cc2cc(c3O[C@@H]2O[C@H](CO)[C@@H](O)[C@H](O)[C@H]2O[C@H]2C[C@](C)(NCc3ccc(OCc4cn(CCCCC(=O)N[C@H](C(=O)N[C@@H](CCN)C(=O)N[C@H]5CCNC(=O)[C@H]([C@@H](C)O)NC(=O)[C@H](CCN)NC(=O)[C@H](CCN)NC(=O)[C@H](CC(C)C)NC(=O)[C@@H](CC(C)C)NC(=O)[C@H](CCN)NC5=O)[C@@H](C)O)nn4)c(OC)c3)[C@H](O)[C@H](C)O2)Oc2ccc(cc2Cl)[C@H]1O | broth microdilution | 168, cation-adjusted Mueller-Hinton broth |  | 0.093 µM |
| CC[C@H]1OC(=O)[C@H](C)[C@@H](OC(=O)Cc2ccccc2)[C@H](C)[C@@H](O[C@@H]2O[C@H](C)C[C@H](N(C)C)[C@H]2O)[C@](C)(OC)C[C@@H](C)C(=O)[C@H](C)[C@@H](O)[C@]1(C)O | microbial growth | DSM402 |  | 2 µg/mL |
| CC(=O)N[C@@H](CC(C)C)C(=O)N[C@H]1CSSC[C@@H](C(=O)N2CCC[C@H]2C(N)=O)NC(=O)[C@H]([C@@H](C)O)NC(=O)[C@H](C(C)C)NC(=O)[C@H]([C@@H](C)O)NC(=O)CNC(=O)[C@H](CC(C)C)NC(=O)[C@H](Cc2ccccc2)NC(=O)[C@H](Cc2ccc(O)cc2)NC(=O)[C@H](CC(C)C)NC(=O)[C@H](CCCCN)NC(=O)[C@H](Cc2ccccc2)NC(=O)[C@H](CCCNC(=N)N)NC(=O)[C@H](CCC(N)=O)NC(=O)[C@H](CC(C)C)NC(=O)[C@H](CCCCN)NC(=O)[C@@H]2CCCN2C(=O)[C@H](CCCCN)NC(=O)[C@H](C(C)C)NC(=O)[C@H](CCCCN)NC(=O)[C@H](Cc2ccc(O)cc2)NC(=O)[C@H]([C@@H](C)O)NC1=O | broth dilution | CGMCC strain | 24 h | < 1.25 µM |
| C#CCOc1ccc(CN[C@@]2(C)C[C@H](O[C@H]3[C@H](Oc4c5cc6cc4Oc4ccc(cc4Cl)[C@@H](O)[C@@H](NC(=O)[C@@H](CC(C)C)NC)C(=O)N[C@@H](CC(N)=O)C(=O)N[C@H]6C(=O)N[C@H]4C(=O)N[C@H](C(=O)N[C@H](C(=O)O)c6cc(O)cc(O)c6-c6cc4ccc6O)[C@H](O)c4ccc(c(Cl)c4)O5)O[C@H](CO)[C@@H](O)[C@@H]3O)O[C@@H](C)[C@H]2O)cc1OC | broth microdilution | 168, cation-adjusted Mueller-Hinton broth |  | 0.308 µM |
| O=C(c1ccccc1O)c1[nH]c(Cl)c(Cl)c1-n1c(C(=O)c2ccccc2O)cc(Cl)c1Cl | microbial growth | ATCC6051 |  | 0.25 µM |
| CN[C@H](CC(C)C)C(=O)N[C@H]1C(=O)N[C@@H](CC(N)=O)C(=O)N[C@H]2C(=O)N[C@H]3C(=O)N[C@H](C(=O)N[C@H](C(=O)NCc4cn(CCCCC(=O)N[C@H](C(=O)N[C@@H](CCN)C(=O)N[C@H]5CCNC(=O)[C@H]([C@@H](C)O)NC(=O)[C@H](CCN)NC(=O)[C@H](CCN)NC(=O)[C@H](CC(C)C)NC(=O)[C@@H](CC(C)C)NC(=O)[C@H](CCN)NC5=O)[C@@H](C)O)nn4)c4cc(O)cc(O)c4-c4cc3ccc4O)[C@H](O)c3ccc(c(Cl)c3)Oc3cc2cc(c3O[C@@H]2O[C@H](CO)[C@@H](O)[C@H](O)[C@H]2O[C@H]2C[C@](C)(N)[C@H](O)[C@H](C)O2)Oc2ccc(cc2Cl)[C@H]1O | broth microdilution | 168, cation-adjusted Mueller-Hinton broth |  | 0.098 µM |
| CCCCCCCCCc1nc2cc(Cl)ccc2c(=O)n1CCN |  | 168 |  | 12.5 µM |
| C=C1NC(=O)C2C[S+]([O-])CC3NC(=O)C(CSC(C)C(NC(=S)C(Cc4cnc[nH]4)NC(=O)c4csc(C(C)NC(C)=O)n4)C(=O)N[C@H](CC(C)C(=O)NC(=O)CC(C(=O)O)NC(=O)C(C)NC3=O)C(=O)N2)NC(=O)[C@@H]2CCCN2C(=O)[C@@H](CC(C)C)NC1=O (some centres unmarked) | bacterial growth | 168 |  | > 32 µg/mL |
| CC[C@H](C)[C@H](NC(=O)[C@@H](CCC(=O)O)NC(=O)[C@H](CC(C)C)NC(=O)c1cccc(C(=O)O)n1)C(=O)N[C@H]1CCCCNC(=O)[C@H](CC(N)=O)NC(=O)[C@@H](CC(=O)O)NC(=O)[C@H](Cc2c[nH]cn2)NC(=O)[C@@H](Cc2ccccc2)NC(=O)[C@H]([C@@H](C)CC)NC(=O)[C@@H](CCCN)NC1=O |  | 168 | 18 h, 37 °C, 0.3 mM ZnSO4 LB | > 64 µg/mL |
| CC[C@H](C)[C@H](N)C(=O)N[C@@H](CCCNC(=N)N)C(=O)N[C@H](C(=O)N[C@@H](Cc1c[nH]c2ccccc12)C(=O)N[C@@H](CCCCN)C(=O)N[C@@H](CCCCN)C(=O)N[C@H](C(=O)N[C@H](C(=O)N[C@@H](CCCNC(=N)N)C(=O)N[C@@H](CCCCN)C(=O)N[C@@H](Cc1c[nH]c2ccccc12)C(=O)N[C@@H](CCCCN)C(=O)N[C@@H](C)C(=O)N[C@H](C(=O)N[C@@H](Cc1c[nH]c2ccccc12)C(=O)N[C@@H](Cc1c[nH]cn1)C(N)=O)[C@@H](C)CC)C(C)C)[C@@H](C)CC)C(C)C | broth dilution | KCTC 3068 |  | 50 µM |
| CC(C)C[C@H](NC(=O)[C@H](CCCNC(=N)N)NC(=O)[C@H](C)NC(=O)[C@H](CC(C)C)NC(=O)[C@H](CCCNC(=N)N)NC(=O)[C@H](C)NC(=O)[C@H](CCCCN)NC(=O)[C@H](CC(C)C)NC(=O)[C@H](CCCNC(=N)N)NC(=O)[C@H](Cc1ccc(O)cc1)NC(=O)[C@H](CC(C)C)NC(=O)[C@H](CCCNC(=N)N)NC(=O)[C@H](C)NC(=O)[C@H](CCCNC(=N)N)NC(=O)[C@H](CC(C)C)NC(=O)[C@H](CCCCN)NC(=O)[C@H](C)NC(=O)[C@H](CC(C)C)NC(=O)[C@H](CCCNC(=N)N)NC(=O)[C@H](C)NC(=O)[C@@H](N)CCCCN)C(N)=O | broth microdilution | ATCC 6633 | 24 h | < 1 µM |
| CC(=O)N[C@@H](CC(C)C)C(=O)N[C@H]1CSSC[C@@H](C(=O)N2CCC[C@H]2C(N)=O)NC(=O)[C@H]([C@@H](C)O)NC(=O)[C@H](C(C)C)NC(=O)[C@H]([C@@H](C)O)NC(=O)CNC(=O)[C@H](CC(C)C)NC(=O)[C@H](Cc2ccccc2)NC(=O)[C@H](Cc2ccc(O)cc2)NC(=O)[C@H](CC(C)C)NC(=O)[C@H](CCCCN)NC(=O)[C@H](Cc2ccccc2)NC(=O)[C@H](CCCNC(=N)N)NC(=O)[C@H](CCCCN)NC(=O)[C@H](CC(C)C)NC(=O)[C@H](CCCCN)NC(=O)[C@@H]2CCCN2C(=O)[C@H](CCCCN)NC(=O)[C@H](C(C)C)NC(=O)[C@H](CC(N)=O)NC(=O)[C@H](Cc2ccc(O)cc2)NC(=O)[C@H]([C@@H](C)O)NC1=O | broth dilution | CGMCC strain | 24 h | 1.25 to 2.5 µM |
| CC[C@H](C)[C@H](N)C(=O)N[C@@H](CCCNC(=N)N)C(=O)N[C@H](C(=O)N[C@@H](Cc1c[nH]c2ccccc12)C(=O)N[C@@H](Cc1ccccc1)C(=O)N[C@H](C(=O)N[C@@H](CCCCN)C(=O)N[C@H](C(=O)N[C@@H](CCCNC(=N)N)C(=O)N[C@@H](CCCCN)C(=O)N[C@@H](CCSC)C(=O)N[C@@H](CCCCN)C(=O)N[C@@H](C)C(=O)N[C@H](C(=O)N[C@@H](Cc1ccc(O)cc1)C(=O)N[C@@H](Cc1c[nH]cn1)C(=O)N[C@H](C(N)=O)[C@@H](C)O)[C@@H](C)CC)C(C)C)[C@@H](C)CC)C(C)C | broth dilution | KCTC 3068 |  | 3.1 µM |
| CN[C@H](CC(C)C)C(=O)N[C@H]1C(=O)N[C@@H](CC(N)=O)C(=O)N[C@H]2C(=O)N[C@H]3C(=O)N[C@H](C(=O)N[C@H](C(=O)N[C@@H](CCCNC(=N)N)C(N)=O)c4cc(O)cc(O)c4-c4cc3ccc4O)[C@H](O)c3ccc(c(Cl)c3)Oc3cc2cc(c3O[C@@H]2O[C@H](CO)[C@@H](O)[C@H](O)[C@H]2O[C@H]2C[C@](C)(NCc3ccc(OCc4cn(CC(=O)N[C@H](C(=O)N[C@@H](CCN)C(=O)N[C@H]5CCNC(=O)[C@H]([C@@H](C)O)NC(=O)[C@H](CCN)NC(=O)[C@H](CCN)NC(=O)[C@H](CC(C)C)NC(=O)[C@@H](CC(C)C)NC(=O)[C@H](CCN)NC5=O)[C@@H](C)O)nn4)c(OC)c3)[C@H](O)[C@H](C)O2)Oc2ccc(cc2Cl)[C@H]1O | broth microdilution | 168, cation-adjusted Mueller-Hinton broth |  | ≤ 0.003 µM |
